# Measurements of several laboratories.
# Each numbered part is a random draw from the data of one study; scales do not carry over between parts.

# Set 1
# Target: RING finger protein unkempt homolog, zinc fingers 1-6, SBP tag (UNK, Homo sapiens, UniProt Q9C0B0, residues 30-357)
# Sequence of UniProt Q9C0B0 (30-357, looked up): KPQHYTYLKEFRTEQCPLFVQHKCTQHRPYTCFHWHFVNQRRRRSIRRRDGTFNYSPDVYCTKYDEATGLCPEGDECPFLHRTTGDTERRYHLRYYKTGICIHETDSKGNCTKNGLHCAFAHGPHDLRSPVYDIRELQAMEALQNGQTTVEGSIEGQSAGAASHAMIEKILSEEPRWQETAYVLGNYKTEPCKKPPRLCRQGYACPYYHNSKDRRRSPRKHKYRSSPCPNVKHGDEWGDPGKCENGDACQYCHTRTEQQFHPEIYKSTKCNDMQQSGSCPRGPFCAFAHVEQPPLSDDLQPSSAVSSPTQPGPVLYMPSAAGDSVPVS
# Technique: RNA Bind-n-Seq
# Molecule type: RNA
# Matrix: in vitro
# Tested at: 100 nM
# Setting: RNA with constant flanks, vertebrate orthologous sites, ends assumed
# Baseline: input RNA pool
# Direction: higher = stronger binding
# All sequences stand within: GGGAGUUCUACAGUCCGACGAUC … CAACAGAGGAUUGAGCAUCA
Sequence,bound/input enrichment [ratio]
ACACUCUUCUACUUAAACUGCUAUUUUCAAACAAUAGAAACCUAUUUUUUUUUUUUACAGUUUAGUAUCUGGUUUCUACAUGGAAGACUAAACCCCGUGCUUAUAGCUAAAUGUGGUCUU,0.462
AUUCAUCUCUUACUUAGUGUCCAAAAUUACUGAGGGUUUGAAACAUUCAGUAAUUUCACAUAGAGCUACAUUGGCAGGUGCUUUAAUACUAUCAUAGUGAGAUCAGAUACCAUUGUAGUA,0.6
UUUAUUGUACUAUCUAUGUAGUCUGAGUUCUUGUUCAGCCAUGGAGUUGCCAUGAUGCACCAAUAAAAUUAUACAGUGUAGUUUGAAAACACCUGCUACCUGGAGCUAUCAGUUUUGCUU,0.451
AUCCCUCAGUGACAGUAUGCCGUCUGUAGCAGAUUCCCACUCUAGUCAUUUUUCUGAGUUUAGUUGUUCUGACCUAGAAAGCAUGAAAACUUCUUGUAGUCAUGGUUCCAGUGACUAUCA,1.69
GAUUUGGACCUUGGAGUUGAACCAGGGAGCUAGCAAAAGUAAAGCAGACUUGUAAAAUUAUAGCUAUAUGCAGCUGCACAACACAGUCCUACCACUAGCAGCUGUGUUAAAGUAUUUAUA,0.682
UUGAAAACUACUGUGUGAAACAUGUCUAUCCAGAGAAAUAACAUUCUAAAAAUAACAAUUUAGCUACAGUCUUUUAAAGUACUGAAUUGUAUGUCAAGAAAUUAAAGUGAAUUUGAGAUA,0.323
GCGGCCGGUGGGGGGUUGUCGCCCACCCUGGCCUUGCCUCCCCUCCCUGCCACCUACCCCUUGUUAUUUUUUUUUAACCACCAUGUGAUUAAGGUCAGCGCUGCCUCCCCCGACCUGCUC,1.24
UUAUUUUCAAUCUCUUCUCCCCCUUCCUGAUUUUAAAAGCCCUUCUUUUUUUAGGCAUAUGUAGUAAUAGUAGCAAACGAAAAAAAAUUUAAUUUGGGCAACUUUGAUUCUUAAAACAGA,1.12
GUAUUAGUGUCCUACCAGCCUGCCAACUCUCAUCUGUGCACAGCUUCCAGUGUUAGGGUCUAGCUAGAUUUUUAUUUAAAAUAUGAACAACUGCUUUUCCCAAGGUGUUUUUUUAGGGGG,2.27
CCCUCUGAACCCCAUAUCUUCUGUUUCAUAGUGCAGAAGUAUUCUUUUCAAUUGUAUUAUUAGUGGACUUGACUAAUUCUAGGAAAACUUUGAGUACAGAUACUGUGAGCUUACAUGGAA,1.14
AGUUUGUAUGUACAUUAUUCACAUUCCUCUCUGUUGUGUUUGGGGGAAAGAAAGACAUUUUAGCCUUUUUUAAAGGUUAUUGAUUUAAUUUCAUGUUAUUUGGUUGCAUGAAGUUGCCCU,0.403

# Set 2
# Target: Sal-like protein 4, full length isoform B (SALL4, Homo sapiens, UniProt Q9UJQ4-2, residues 1-616)
# Technique: universal PBM
# Molecule type: double-stranded DNA, one strand shown
# Matrix: in vitro
# Tested at: not given
# Setting: 8-mer, flanks averaged, mean of replicates
# Direction: higher = stronger binding
Sequence,E-score
GGGATCCC,-0.331
AATGTTCG,0.141
ACATAGAG,0.014
ACCTAGCG,-0.0437
AGTTCCAA,-0.00036
CCCACACG,-0.105
AGTCGTAC,-0.0823
AGTCTACC,-0.116
ACCCCTCC,-0.266
AAAAGCCC,-0.0541
CTAAGGGC,-0.191
GTTGTGTA,0.2
ATCGCGCG,-0.19
CGCAACTA,-0.0219
AGAGTCTA,0.178
CCGGAGCG,-0.23
ATCGTGCA,-0.00971
ACTAAAAG,0.118
GACCGCAC,-0.251
GCCCGAGC,-0.275
GGATAGTA,0.241
GTGTGGGA,-0.0923
CCTTATAG,0.255

# Set 3
# Target: Hepatocyte nuclear factor 3-alpha (Foxa1, Mus musculus, UniProt P35582, residues 1-468, full length assumed)
# Sequence of UniProt P35582 (whole entry, looked up): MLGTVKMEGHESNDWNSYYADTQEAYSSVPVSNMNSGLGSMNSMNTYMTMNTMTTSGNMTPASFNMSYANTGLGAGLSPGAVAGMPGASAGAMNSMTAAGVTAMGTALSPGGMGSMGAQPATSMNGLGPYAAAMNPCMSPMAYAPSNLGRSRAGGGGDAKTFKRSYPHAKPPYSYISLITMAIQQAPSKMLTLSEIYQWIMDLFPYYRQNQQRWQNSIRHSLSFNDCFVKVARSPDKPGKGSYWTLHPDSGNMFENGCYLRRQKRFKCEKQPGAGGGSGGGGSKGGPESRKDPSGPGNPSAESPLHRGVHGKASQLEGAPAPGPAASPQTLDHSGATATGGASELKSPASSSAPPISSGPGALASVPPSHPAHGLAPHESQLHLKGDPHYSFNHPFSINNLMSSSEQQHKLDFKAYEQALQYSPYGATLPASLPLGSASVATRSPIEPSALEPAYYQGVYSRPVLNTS
# Technique: EMSA with sequencing
# Molecule type: double-stranded DNA, one strand shown
# Matrix: in vitro
# Tested at: 10 and 20 nM
# Setting: whole designed probe, mean of two concentrations, ends assumed
# Baseline: negative control set to 0
# Direction: higher = stronger binding
# All sequences stand within: GTGAGCGGTGCCCATTGATGGGGAAC … TTTCACTGGGATCGTGGGGAC
Sequence,normalised bound fraction
AACAGAATTATGCCTTGCATACTGAGTAAGTGATGACATTCAGCAGAACACCCACTATGGAGAGCACCAGATTATAGCTGTCCTTAAACTGCTAGATTGCTTTGCCCTGATAAAAGAAAAAATGTTCATAGAGTTTTCTAAGTCTCTTTTGTGTGGTTAGTTTATTTGCTTGTTGTATGTGAATAAGAAAGAT,0.177 ratio
AATGTCTTTAGCAAGGTAATCATTTTCAAAAAATAGAAGAGAACTACATTAAATATTACTGATAAAAGCAAAAGCATCTATAAATTAGCATTCATGTTTACATATTAGTTTCTTACAAAATTAATTCCATAGAAATCTCTGGGAAAATTACAATTTCAAGCTACAGTGGATCTAAGTTTATCTAAATATTTTA,0.262 ratio
AGTGAGAACTTTACTTTCAAAATAAGCTGATGGTGTTATATACATCATAAATTTAATTGCGCCCACTAAGCAAATAGAGCCAATATGTTTTATGTTTACTTTGATTCTAATCAAAACAACTCCTAGCCAGCTTGTCTTAGATAATCTAAATAATTTCATGTTAAAAAACATTGAGGCAGTATATATATATATA,0.49 ratio
AGTCCAAAAGACACAATAGGCACTGAGCAGAGGATGATGGCAATGGTAGAATGAATCATGAGGTTCATAACCAGGAGACTTAAAGCAAAAAAAATAATCTACCAAACAGCAATGGGTGAAGAGTTCCCTGCAAAGGCTAATCTATAAATAAGCACTGTGATCTTTCCTGGTCTGATAACAAATCTCATTATGA,-0.00484 ratio
CCCTCAAGACACATAATATTTGCAGAATTCTGTGGACAGAGGATTTAGTACACACTGCTTTCATCCTGTGATTGCCCTAAGTACTTTCAGAAATGTAATCTGTCCTGACACATGTGGTCTTTGAATATGGTCAAACACCTCATTCTTCAGCTTTGGTATCTCATAACAAATTGTTGCATAAAGTATGAAAAAT,0.0576 ratio
TTTTGTCCAATTTATTAACTCCTGGAAAACGGCACTCAGTCTATTGCAAGAAAAGCCTTTGCTGATGAGCATGACCAGAATTTGCATACTTTCTAGATTACATAACACTTATTCTTTACTAGTGGGCAAAATTGCTTATAAGCTGTTAAGCAGGGTATTGGAAGGCCTCTATGGAACTTCACTTATCAGTGAT,-0.0386 ratio
CACAAAGCAACTAGACAAATATTGATTTTGTAGTTACTGTAAAGGATTGAACAAAAATATGAAGAGCAGAGTTTCTACTCAAATGTGATCAAAGTCAACACTGAGGATCTGACCAGATTAAAACAATGCTACTAACCTGGATAAGGTGGCATCCCCCGAAAGACTATTTTCTTACCCTTTTTTGTTTGTTTGA,0.426 ratio
CCTGTGGGATAACATCAAGTGCTCTAACGTAAGTATCACTGCAGTCCTGGGAAGGGGCAGGGCGGGACTATTTGAAAACATGATGACTAAATGTAAATACTCAAGGTATGATGACACTGTATGCAGAGTACTCAACACAAAGGGTTCAGTGTTAAATGTAGACTTACACGGGTATATGGTACCCACAACTCAA,0.266 ratio

# Set 4
# Target: Histone acetyltransferase KAT6A, winged helix 1, GST fusion (KAT6A, Homo sapiens, UniProt Q92794, residues 1-85)
# Technique: protein binding microarray
# Molecule type: double-stranded DNA, one strand shown
# Matrix: in vitro
# Tested at: not given
# Setting: 8-mer, flanks averaged, mean of 2 arrays, mostly near background
# Baseline: not given
# Direction: higher = stronger binding
# Residues (chain): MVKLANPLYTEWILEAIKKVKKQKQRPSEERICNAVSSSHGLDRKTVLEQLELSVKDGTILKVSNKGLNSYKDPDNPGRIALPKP
Sequence,E-score
ACGGTACC,0.246
CAATCCCG,0.281
CGGGCCAG,0.131
AGTACGCG,0.303
AGAGCGGG,0.331
CCGTTAGA,0.204
AGATCACG,0.0765
CAGGTAAC,-0.11
GCGCTACA,0.263
ACGCGGAC,0.353
CAGTAGTC,-0.0851
CCGTGAGC,0.349
CATGGAAC,-0.122
CGACGTCC,0.171
AAGCCGCC,0.406
CCCCGTAA,0.216
CTTTGCTA,-0.173
ATAGGGGG,-0.148
CCTCAAGA,-0.118
ATAACCCA,-0.189
CTCACTAC,-0.19
CAACCTGC,0.0726
CTGTCATA,-0.0632

# Some of these lines once more (set 2):
Sequence,E-score
ACTAAAAG,0.118
GACCGCAC,-0.251
GCCCGAGC,-0.275
GGATAGTA,0.241
GTGTGGGA,-0.0923
